{"data": "Earlier results that unrelated publications cite", "target": "CYP2C19", "note": "± gives the spread as reported."}
{"SMILES": "CCNS(=O)(=O)C(F)(F)C(F)(F)C(F)(F)C(F)(F)C(F)(F)C(F)(F)C(F)(F)C(F)(F)F", "action": "inhibitor", "quantity": "IC50", "value": "51.2 ± 29.7 µM"}
{"SMILES": "CC(=O)Nc1ccc(O)cc1", "action": "substrate", "quantity": "Vmax", "value": "1.14 pmol/min/pmol"}
{"SMILES": "COc1ccc2[nH]c([S@@+]([O-])Cc3ncc(C)c(OC)c3C)nc2c1", "observed": "5-hydroxylation", "notes": "in vitro", "quantity": "fraction of intrinsic clearance", "value": "~70%"}
{"SMILES": "CO[C@H]1/C=C/O[C@@]2(C)Oc3c(C)c(O)c4c(O)c(c(/C=N/N5CCN(C)CC5)c(O)c4c3C2=O)NC(=O)/C(C)=C\\C=C\\[C@H](C)[C@H](O)[C@@H](C)[C@@H](O)[C@@H](C)[C@H](OC(C)=O)[C@@H]1C", "observed": "enzyme induction", "notes": "Simcyp compound file", "quantity": "EC50", "value": "0.45 µM"}
{"SMILES": "COc1ccc2nc([S@@+]([O-])Cc3ncc(C)c(OC)c3C)[nH]c2c1", "action": "mechanism-based inhibitor", "quantity": "unbound fraction in microsomes", "value": 1}
{"SMILES": "C=C(C)C(=O)OCCC(F)(F)C(F)(F)C(F)(F)C(F)(F)C(F)(F)C(F)(F)F", "tested at": "concentration not given", "quantity": "activity", "value": "inactive"}
{"SMILES": "CCCCNC(=O)NS(=O)(=O)c1ccc(C)cc1", "notes": "4-hydroxylation pathway", "quantity": "CLint", "value": "0.028 µL/min/pmol"}
{"SMILES": "CC(C)(CO)c1cc2cc(NC(=O)C3(c4ccc5c(c4)OC(F)(F)O5)CC3)c(F)cc2n1C[C@@H](O)CO", "action": "inhibitor", "quantity": "Ki", "value": "22.5 µM"}
{"SMILES": "CNCc1cn(S(=O)(=O)c2cccc(F)c2)c(-c2ccc(F)cc2F)c1OC", "observed": "enzyme activity", "action": "inhibitor", "quantity": "IC50", "value": "44.7 µM"}
{"SMILES": "CO[C@H]1/C=C/O[C@@]2(C)Oc3c(C)c(O)c4c(O)c(c(/C=N/N5CCN(C)CC5)c(O)c4c3C2=O)NC(=O)/C(C)=C\\C=C\\[C@H](C)[C@H](O)[C@@H](C)[C@@H](O)[C@@H](C)[C@H](OC(C)=O)[C@@H]1C", "observed": "induction", "action": "inducer", "quantity": "EC50", "value": "0.45 µM"}
{"SMILES": "FC(F)OC(Cl)C(F)(F)F (stereo not drawn)", "action": "inhibitor", "notes": "Tox21 screening", "quantity": "IC50", "value": "79.7 µM"}
{"SMILES": "COC(=O)N[C@H](C(=O)N1CCC[C@H]1c1nc(-c2ccc3c(c2)O[C@@H](c2ccccc2)n2c-3cc3cc(-c4c[nH]c([C@@H]5CCCN5C(=O)[C@@H](NC(=O)OC)C(C)C)n4)ccc32)c[nH]1)C(C)C", "action": "inhibitor", "medium": "human liver microsomes", "quantity": "IC50", "value": "> 100 µM"}
{"note": "Repeated from above:"}
{"SMILES": "COC(=O)N[C@H](C(=O)N1CCC[C@H]1c1nc(-c2ccc3c(c2)O[C@@H](c2ccccc2)n2c-3cc3cc(-c4c[nH]c([C@@H]5CCCN5C(=O)[C@@H](NC(=O)OC)C(C)C)n4)ccc32)c[nH]1)C(C)C", "action": "inhibitor", "medium": "human liver microsomes", "quantity": "IC50", "value": "> 100 µM"}
